Published values of several laboratories.
Parts stem from different laboratories: compare values within a part only.

Study 1 — technique: RNA Bind-n-Seq; molecule type: RNA; sample: in vitro; tested at: 365 nM; relative to: no-protein control; direction: higher = stronger binding
Target: RNA binding protein fox-1 homolog 2, RRM domain, GST-SBP tag (RBFOX2, Homo sapiens, UniProt O43251-10, residues 100-194)
Notes: natural RNA segment, single round, ends assumed
Construct (chain): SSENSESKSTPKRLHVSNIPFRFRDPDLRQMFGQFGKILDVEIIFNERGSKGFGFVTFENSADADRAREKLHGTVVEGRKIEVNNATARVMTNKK
| Sequence | RBNS enrichment (R) |
| --- | --- |
| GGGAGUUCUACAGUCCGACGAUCAAGGUUAGAGGUUUGUCAACAAAAAGACAUGGAAGGUUAGGUUUGUCAACACAAAGACAUGGAAGAUUAGAGGUUUGUCAACACAAAGACACAGGAAGAAUGGGCUGCAGUGGAAUUCUCGGGUGCCAA | 1.21 |
| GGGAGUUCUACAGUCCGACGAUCACCCUAUGUACACAGCCAAAAGCCGCACUGCCUGCGCCCCUGGAACCUGGGUCCGGCCUUCCUCAGCCCCUGGCCCCUCCAAGGUACCUAUAAGGGACAAGAGAAGGCCUUGGAAUUCUCGGGUGCCAA | 0.365 |
| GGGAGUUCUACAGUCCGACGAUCUUCUUGCAUUUUGCUCUCCAUUCAGCAUGUGUGUGGGUGUGGAUGUUUAUAAACAAGACUAAGUCUGACUUCAUAAGGGCUUUCUAAAACCAUUUCUGUCCAAGAGAAAAUGGAAUUCUCGGGUGCCAA | 24.2 |
| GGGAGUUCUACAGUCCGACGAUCAAGUGCCAUAUUCUGUGAUCACGGAUGUUGGCUCCCCCUCGCCCUAUGCAAGCAAACACACUCUCACCUCCUCUCCCAGCCUCCCGGAGCUCUGAGCACGCCCCACGCAUUGGAAUUCUCGGGUGCCAA | 1.36 |
| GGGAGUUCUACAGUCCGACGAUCCUGUGUAGCUGAGCAAGGUCUGCUCUCCAGAGGAACACAUCUGCAUUGAACACAUCUGCAAGUACAAUGUCUUGAUCCAAAACAGCAAAUAGGAAAUCAUGUUCUUCCCAUGGAAUUCUCGGGUGCCAA | 0.345 |
| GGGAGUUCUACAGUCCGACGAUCACUUCCCCACAAUGCUGCAUUACCGAUAGGACCUAGUGUUUACUACAGUGUAAAUGUUUAUAUGGACACAGAACAGCAUCACUAAAUAAAGCCUUUCUACUUGUGGGUGCUGGAAUUCUCGGGUGCCAA | 0.813 |
| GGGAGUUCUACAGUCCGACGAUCAGGAAGUUGAGUCCUAGUGCAAAAUGCAGGCGGACGUUGCCAGAGAGUGCGCAGCAAAUGACCUUCAUUGCCAGUUCCACCCUACUCCUCUCAUUUUUUAUACUAAGCAAUGGAAUUCUCGGGUGCCAA | 0.448 |
| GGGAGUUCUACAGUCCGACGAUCAAGUGGACACACUUGAGAAACAGUGGAGGGAGAGUGUGAAAGCCACACGCUUGCCCUGGUUGGUCCUGUCUUUAGGCAGAUGUGGUCAGUAUUCUGUUCCCCAGGCAUACUGGAAUUCUCGGGUGCCAA | 0.19 |
| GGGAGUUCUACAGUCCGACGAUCACUUUUGAGCGCUGUGUUCCCCCUUCUGAGUAGUCCUUUGACGACGUGUUGUGUUUUCUGAUGUUGACUUGAGUUCCAUUUAGUAGCAUCUCUUCCUUCCAUGUCUUGAUUGGAAUUCUCGGGUGCCAA | 0.312 |
| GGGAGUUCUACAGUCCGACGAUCCCGCUAGAGCCCCUCUCCCUACCUUCUGCCUGUUUUCUCCAAUAAAUGCGGAAGGAGUUAAACUUCAUGCCUCUUGUGUCUUUGGGUGUUUGGGAGAAGUAGCAGGGUGGUGGAAUUCUCGGGUGCCAA | 0.611 |
| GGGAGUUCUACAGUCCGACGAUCAGCUCUGGGGCUGGCUGUCCUCCGCUCUGCGCCUGUCAGGCAGGGCACGUGCUCACAGCCCUGGGUUGAUUUAUUUUUUUAAGGGGGGUAGUUUUAUUUUGGUGGGGCUGUGGAAUUCUCGGGUGCCAA | 4.13 |
| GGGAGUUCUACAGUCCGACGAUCGCUGCACGUAUGCAGUAUCCUAUCUCUUUCUACAUCAGAUCAAAACACUAAGUUGGUGUACUGCCUCGACCUUUUUUCAGCUCAUCCUGGAACAUAUACAGAGUUGAGAGUGGAAUUCUCGGGUGCCAA | 0.418 |

Study 2 — technique: protein-binding microarray; molecule type: double-stranded DNA, one strand shown; sample: in vitro; tested at: 0.8 µM; notes: whole 60-bp probe, no competitor; direction: higher = stronger binding
Target: Centromere-binding protein 1, full length, N-terminal tag (CBF1, Saccharomyces cerevisiae, UniProt P17106, residues 1-351)
Chain of UniProt P17106 (whole entry, looked up): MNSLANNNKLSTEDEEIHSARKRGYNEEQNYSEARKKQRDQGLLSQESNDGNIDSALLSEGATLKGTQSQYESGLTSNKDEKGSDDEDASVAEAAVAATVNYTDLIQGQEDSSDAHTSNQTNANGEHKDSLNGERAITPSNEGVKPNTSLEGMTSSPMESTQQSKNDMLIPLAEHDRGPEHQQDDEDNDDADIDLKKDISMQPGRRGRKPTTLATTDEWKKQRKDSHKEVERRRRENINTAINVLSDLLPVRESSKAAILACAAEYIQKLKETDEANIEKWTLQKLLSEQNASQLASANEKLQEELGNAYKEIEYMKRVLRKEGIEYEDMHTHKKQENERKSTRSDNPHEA
| Sequence | fluorescence intensity |
| --- | --- |
| GAATTTGAAGTTTTGCGTGTGACAGACAAGTCCTAGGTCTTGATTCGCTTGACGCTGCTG | 607 a.u. |
| GAATACACTATTCACCAGACCCGCTCCTTCTCCTAGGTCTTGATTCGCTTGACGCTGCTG | 520 a.u. |
| CTACCAATAGAGCCGCACATGTAATTACTGGTTTTCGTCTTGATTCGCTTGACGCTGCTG | 528 a.u. |
| GAAGGAGAATATATTGACGTGCACATTAATTATTAGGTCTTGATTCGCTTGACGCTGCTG | 570 a.u. |
| CTAATGCAGAAAGGTTGTCTCATGAAATAAAAATTCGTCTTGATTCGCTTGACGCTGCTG | 587 a.u. |
| CTAACTGAAGTGCAGCTGACGATCCAGTCAGCGTTCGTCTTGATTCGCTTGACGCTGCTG | 614 a.u. |
| GAAGTTCTACATGTACTCGTGCTTTCTTTATTGTAGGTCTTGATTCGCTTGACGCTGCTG | 664 a.u. |
| GAATAGACACTCTATCATCAGAAACATCCGAATTAGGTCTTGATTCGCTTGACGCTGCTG | 481 a.u. |
| GAAATGCAGAAAATGTACGTGATAGTTAAGCTTTAGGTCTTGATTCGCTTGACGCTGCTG | 601 a.u. |
| CTACTTTCTGATCATCACCCCTTATTGCCTCAGTTCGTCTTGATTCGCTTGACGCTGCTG | 868 a.u. |
| CTATATTTGCTCAATGGTGTCACTTCCCGTTTTTTCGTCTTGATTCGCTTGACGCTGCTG | 557 a.u. |
| GAATTTTAATTAATTCATGTGCACAGGCCTGCTTAGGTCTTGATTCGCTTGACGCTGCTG | 593 a.u. |
| CTAACCATTGTTCATCACGATCATGAAACTCGCTTCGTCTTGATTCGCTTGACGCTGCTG | 618 a.u. |
| GAAAATTTCGAAAAGGTGATGACGCCCTATGCATAGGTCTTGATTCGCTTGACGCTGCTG | 486 a.u. |
| TGTACGAAGCTATACCTCGTGATTATAGTAGTTAGGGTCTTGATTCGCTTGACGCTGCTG | 1820 a.u. |
| CTATCCGCATAATTAAACGTGTGCTGGCCTCGATTCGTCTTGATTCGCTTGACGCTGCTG | 566 a.u. |
| GAACCAGAACTTGCGATGGTGATGGCAAAAAGCTAGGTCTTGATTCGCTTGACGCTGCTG | 521 a.u. |
| CTACCTCTTTAAGCTGACATCACGTCTATACCCTTCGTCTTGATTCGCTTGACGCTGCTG | 605 a.u. |

Study 3 — technique: protein binding microarray; molecule type: double-stranded DNA, one strand shown; sample: in vitro; tested at: not given; relative to: not given; direction: higher = stronger binding
Target: Histone acetyltransferase KAT6A, winged helix 1, GST fusion (KAT6A, Homo sapiens, UniProt Q92794, residues 1-85)
Notes: 8-mer, flanks averaged, mean of 2 arrays, mostly near background
Residues (chain): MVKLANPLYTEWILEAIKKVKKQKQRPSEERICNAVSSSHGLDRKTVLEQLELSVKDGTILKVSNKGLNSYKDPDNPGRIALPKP
| Sequence | E-score |
| --- | --- |
| CTCTACAA | -0.135 |
| AGTCACTG | -0.0282 |
| GTGAAATA | -0.143 |
| GATTCCCC | 0.0737 |
| CGGGTCCC | 0.353 |
| AAACGCCA | -0.144 |
| AGAAGGGA | -0.0523 |
| CGGGGATA | 0.153 |
| CTAATGAG | -0.0468 |
| CCGATGGC | 0.219 |
| ACCAAGAT | -0.178 |
| ATCTCATG | -0.0825 |
| ACACGAAA | 0.0751 |
| CACCGCAG | 0.108 |
| GCAATTGC | 0.189 |
| CCCGCCCG | 0.434 |
| ACTATTGA | -0.0938 |
| ATGTCGGA | 0.111 |
| CTAAGAAA | -0.0902 |
| CACTATGA | -0.0875 |
| GACATGAC | 0.0642 |
| GAACGTCA | -0.0664 |
| ATTTCTCA | -0.176 |
| GACTCTCA | -0.0344 |
| CCCCCCAG | -0.15 |

Study 4 — technique: protein-binding microarray; molecule type: double-stranded DNA, one strand shown; sample: in vitro; tested at: 2200 nM top; notes: 60-bp whole probe; added: salmon DNA 0.4 mg/ml; relative to: random background probes; direction: higher = stronger binding; constant ends, left off below: GCCTAGCAC … GTCTTGATTCGCTTGACGCTGCTG
Target: Interferon regulatory factor 7, full length, phosphomimetic (IRF7, Homo sapiens, UniProt Q92985, residues 1-503, S471D/S472D/S475D/S476D/S477D/S483D/S484D/S487D)
Target sequence (chain): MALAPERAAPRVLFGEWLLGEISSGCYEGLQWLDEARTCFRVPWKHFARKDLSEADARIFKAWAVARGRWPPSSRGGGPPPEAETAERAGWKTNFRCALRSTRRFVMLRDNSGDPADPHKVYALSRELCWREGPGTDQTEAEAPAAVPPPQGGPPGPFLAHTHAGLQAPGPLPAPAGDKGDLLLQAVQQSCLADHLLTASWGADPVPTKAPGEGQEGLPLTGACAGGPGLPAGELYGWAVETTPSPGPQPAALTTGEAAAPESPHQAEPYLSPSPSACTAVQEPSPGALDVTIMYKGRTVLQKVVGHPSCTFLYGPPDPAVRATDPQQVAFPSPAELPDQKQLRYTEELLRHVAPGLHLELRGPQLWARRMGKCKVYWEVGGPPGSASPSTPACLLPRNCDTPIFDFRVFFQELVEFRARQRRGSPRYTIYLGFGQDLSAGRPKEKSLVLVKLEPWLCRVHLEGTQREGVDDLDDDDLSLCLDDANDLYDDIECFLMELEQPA
| Sequence | fitted relative affinity [z-score] |
| --- | --- |
| ACAGCAAGAGCTCAACGGGGGTGCTAG | 0.0382 |
| GACGATCTGAGACTGGAGACGTGCTAG | -0.308 |
| TCAAGCCTCAGGCCTCACACTGTGCTA | -0.443 |
| GACGGTCTCCATTTCCTGACGTGCTAG | 1.4 |
| TCATTTTTCTACTTCTCACTGTGCTAG | 3.67 |
| TTAGATTTCAGTCTAGATTAGTGCTAG | 0.0241 |
| TCAAATATTCATTTTATACTGTGCTAG | 0.578 |
| GACGATGTCGGGTTTCGAGACGTGCTA | 1.1 |
| TCAAAACTCACTCATGGCACTGTGCTA | -0.373 |
| TCTCTGCTACCCTCTGAAAGTGTGCTA | 1.36 |
| CTAGGTATCCTACTGCTTTAGTGCTAG | 0.631 |
| TTAGATATCGGGACTGGATTAGTGCTA | -0.373 |
| TTAGGTATCGCCTATCGGTTAGTGCTA | 0.286 |
| TGTGTTGCAGAAACGCCATGGTGCTAG | 0.361 |
| GACGGACTGGGACTAGGGACGTGCTAG | -0.961 |
| GACGGACTGGGTATTGGGACGTGCTAG | -0.937 |
| GACGATAACAGTCTCGAGACGTGCTAG | 0.264 |
| TCAAATTTAGAAAATGGAACTGTGCTA | -1.25 |
| TTAGGAATGGACTTTCGGTTAGTGCTA | 4.88 |
| GACGGACTGGCGTATCGGGACGTGCTA | -1.02 |
| TTAGAACTGAGTATCGTTTAGTGCTAG | -0.124 |
| TTAGATATCGGGTATCGATGAGTGCTA | -0.0555 |
| GAAGGACTGCTTTTCCTGACGTGCTAG | 0.458 |
